# Experimental data collected from several papers.
# Compare with care: the assays were run in different laboratories. Several values in a cell are separate wells, animals, samples, runs or records. ± marks the error that the study gave.
SMILES,target or system,test,test system,conditions,how to read,measurement,value
Cc1cc(F)cc2c(CCC(=O)N[C@@H]3C(=O)NC[C@H]3O)c(-c3ccc(F)cc3)[nH]c12,,,"APOL1 G2 mice, IFNγ-induced","30 mg/kg twice daily, day 12",,urine albumin/creatinine ratio,701 µg/mg and 3110 µg/mg and 143 µg/mg and 118 µg/mg and 637 µg/mg
COc1ccc(-c2cncc(N[C@@H](C)c3cccc(NC(=O)c4cncc(C)c4)c3)n2)cc1OC,,measured: rno-miR-185-5p,"rat SU5416/hypoxia model, lung",dose not given,relative to: SU5416/hypoxia vehicle,fold change,1.09
C[C@H]1C[C@H]2CSC(N)=N[C@@]2(c2nc(NC(=O)c3ccc(OC(F)F)cn3)cs2)CO1,,measured: total Aβ,"healthy adults, plasma","15 mg once daily, day 2",relative to: placebo,percent change from baseline,-40.3%
CCCCC1(CCCC)CN(c2ccccc2)c2cc(SC)c(OCC(=O)N[C@@H](C(=O)NCC(=O)O)c3ccccc3)cc2S(=O)(=O)C1,,measured: 7α-hydroxy-4-cholesten-3-one,"human, plasma","15 mg once daily, day 1",,plasma C4,21.7 ng/mL
N#Cc1ccc2c(c1)[C@H]1CCCN(C(=O)c3ccc4[nH]cnc4c3)[C@H]1C2,,measured: 2 h postprandial glucose,"human, Phase II trial","oral, 240 mg once daily, day 28, adjusted mean, SE",,change from baseline,17.7 mg/dL
Cc1cc([C@H]2C[C@H]3[C@@H](CF)SC(N)=N[C@@]3(c3ccc(F)cc3F)CO2)on1,,measured: Aβx-42,"Mus musculus wild-type, brain","subcutaneous, 30 mg/kg, 14 h",,Aβ42 level,0.72 ng/g
c1ccc(-c2n[nH]cc2-c2ccnc3ccccc23)nc1,,"kinase binding, competitor, MIB/MS competition, measured: RIM8",Candida albicans cell lysate,1 µM,relative to: DMSO,log2 fold change,1.48
Cc1cn(-c2cc(NC(=O)c3ccc(C)c(Nc4nccc(-c5cccnc5)n4)c3)cc(C(F)(F)F)c2)cn1,,measured: total tau,"human, cerebrospinal fluid","dose not given, between 12 and 6 months, unit not given",relative to: placebo,median difference in change,-2.49
Cc1coc([C@H]2C[C@H]3[C@@H](CF)SC(N)=N[C@@]3(c3ccc(F)cc3F)CO2)n1,,measured: Aβx-42,"Mus musculus wild-type, brain","subcutaneous, 80 mg/kg, 5 h",,Aβ42 level,0.52 ng/g
Cc1n[nH]c2ccc(-c3cc(OC[C@@H](N)Cc4ccccc4)cnc3-c3ccoc3)cc12,,"kinase binding, competitor, MIB/MS competition, measured: FPK1",Candida albicans cell lysate,10 µM,relative to: DMSO,log2 fold change,-0.41
N=C(N)NCCC[C@H](NC(=O)[C@H](CCCNC(=N)N)NC(=O)[C@H](CCCCN)NC(=O)[C@H](CCC(N)=O)NC(=O)[C@H](CCCCN)NC(=O)[C@H](Cc1ccc(O)cc1)NC(=O)[C@@H](N)CCCCN)C(=O)N[C@@H](CO)C(=O)N[C@@H](Cc1ccc(O)cc1)C(=O)N[C@@H](CCCCN)C(=O)O,,,dentin hypersensitivity patients,"10 µg/tooth single, day 22, higher-VAS tooth",relative to: baseline,cold water VAS change,-33.8 ± 19.6 mm
Cc1ccc([C@@H]2O[C@H](CO)[C@@H](O)[C@H](O)[C@H]2O)cc1Cc1ccc(-c2ccc(F)cc2)s1,,,Japanese type 2 diabetes patients,"400 mg, day 16",relative to: day 0,"change, mean 24 h, plasma glucose",-75 mg/dL
CC#Cc1cncc(-c2ccc3c(c2)[C@@]2(N=C(C)C(N)=N2)[C@]2(CC[C@H](OC)CC2)C3)c1,,measured: Aβ40,"C57BL/6 mice, plasma","oral, 50, 100 or 200 µmol/kg single, down to LLOQ",,reduction,88%
CC(C)c1c(C(=O)Nc2ccccc2)c(-c2ccccc2)c(-c2ccc(F)cc2)n1CC[C@@H](O)C[C@@H](O)CC(=O)O,,,"cynomolgus monkey, male, serum","40 mg/kg or 25 mg/kg, day 86, 2064 h",,LDL-C,42.6 mg/dL
CCO,,,supine,"concentration not given, 0 to 4 h",relative to: baseline,change in SBP AUEC(0-4 h),-12.7 ± 27.1 mmHg·h
Cc1ccc(S(=O)(=O)O)cc1,THP-1,pyroptotic LDH release,,"2 µM, 40 min, together with: LPS then nigericin",,inhibition,7.99%
CCN1CCN(Cc2ccc(Nc3ncc(F)c(-c4cc(F)c5nc6n(c5c4)[C@H](C)CCC6)n3)nc2)CC1,,,human advanced solid tumours,"50 mg, phase Ia monotherapy RECIST 1.1",,disease control rate,0%
OC(CCN1CCCCC1)(c1ccccc1)C1CC2C=CC1C2 (stereo not drawn),,resting-state EEG,healthy elderly humans,"oral, 2 mg, eyes open, LS mean",,EEG Beta3-power Pz-O1,2.1 µV²
C[C@H]1O[C@@H](O[C@H]2CC[C@@]3(C)[C@@H](CC[C@]4(C)[C@@H]3C=C[C@]35OC[C@@]6(CCC(C)(C)C[C@H]63)[C@@H](O)C[C@]54C)[C@]2(C)CO)[C@H](O)[C@@H](O[C@@H]2O[C@H](CO)[C@@H](O)[C@H](O)[C@H]2O)[C@H]1O,,Western blot,"ethanol-fed mice, liver","dose not given, -M dose",relative to: control mice,SIRT1 to β-actin ratio,0.623 fold change and 0.851 fold change and 0.87 fold change
Cc1cc(/C=C2\Oc3cc(OCC4CC4)ccc3C2=O)cc(C)c1OC(C)(C)C(=O)O,,"RT-PCR, measured: PNPLA2, LPL, Apo C-II","db/db mice, MCD diet-fed, liver",30 mg/kg,relative to: model group,mRNA level,increased
Cc1cc(Nc2ncc(Cl)c(Nc3ccccc3S(=O)(=O)C(C)C)n2)c(OC(C)C)cc1C1CCNCC1,,,patients with advanced solid tumours,"dose not given, arms 1 and 3, evaluable patients",,overall response rate,20%
CCOCc1nc(O)c(-c2nnc(Cc3ccc(Cl)cn3)o2)c(O)c1-c1c(OC)cccc1OC,,,instrumented anaesthetised rat,"intravenous infusion, 10 µg/kg/min for 15 min, 15 min",relative to: baseline,MAP change,-1.9 ± 0.5%
CC#CC(=O)N[C@H]1CCCN(c2c(F)cc(C(N)=O)c3[nH]c(C)c(C)c23)C1,,,"healthy volunteers, single ascending dose, serum","0.3 mg, day 10",,change from baseline in serum IgM,16.7 mg/L
N#Cc1ccn2c(-c3ccncc3)c(-c3ccc(F)cc3)nc2c1,,"kinase binding, competitor, MIB/MS competition, measured: HSL1",Candida albicans cell lysate,10 µM,relative to: DMSO,log2 fold change,-0.53
Cc1cc(C)c(CNC(=O)c2cc(Cl)c3c(c2C)O[C@@](C)([C@H]2CC[C@H](N(C)C)CC2)O3)c(=O)[nH]1,,"IWG criteria, CR or PR",relapsed/refractory PTCL-NOS patients,dose not given,,overall response rate,50%
COc1nc(NCc2cn(-c3ccc(NC(=O)c4ccc(C(F)(F)F)cc4)cc3)nn2)nc(OC)n1,,MTT,"normal colonocytes, rat",72 h,,maximum non-toxic concentration,1.53 ± 0.2 nM
O=C(O)c1cn[nH]c1,THP-1,pyroptotic LDH release,,"2 µM, 40 min, together with: LPS then nigericin",,inhibition,44.7%
C=C1CC[C@H](OCCCNC(=O)CCOCCOCCOCCOCCOCCOCCOCCOCCOCCOCCOCCOCCOCCOCCOCCOCCOCCOCCOCCOCCOCCOCCOCCOCCOCCOCCOCCOCCOCCOCCOCCOCCOCCOCCOCCOCCNC(=O)CCN2C(=O)CC(SC[C@H](NC(=O)[C@H](CCCNC(=N)N)NC(=O)[C@@H]3CCCN3C(=O)[C@H](CCC(N)=O)NC(=O)[C@H](CC(C)C)NC(=O)[C@H](CCCCN)NC(=O)[C@H](C)NC(=O)[C@@H]3CCCN3C(=O)[C@@H]3CCCN3C(=O)[C@H](CCCCN)NC(=O)[C@H](CCCCN)NC(=O)[C@H](CO)NC(=O)[C@H](CCC(=O)O)NC(=O)[C@H](CCCCN)NC(=O)[C@H](CCCNC(=N)N)NC(=O)[C@H](CCC(N)=O)NC(=O)[C@H](CCC(N)=O)NC(=O)[C@@H](NC(=O)[C@H](CCCNC(=N)N)NC(=O)[C@H](CCC(N)=O)NC(=O)[C@H](Cc3c[nH]cn3)NC(=O)[C@H](CCC(=O)O)NC(=O)[C@@H]3CCCN3C(=O)[C@H](CO)NC(=O)[C@H](CC(C)C)NC(=O)[C@H](Cc3ccccc3)NC(=O)[C@H](CNC(=O)CCCCCCC)NC(=O)[C@H](CO)NC(=O)CN)C(C)C)C(=O)O)C2=O)C/C1=C/C=C1\CCC[C@]2(C)[C@@H]([C@H](C)CCCC(C)(C)O)CC[C@@H]12 (stereo partly drawn),,"real-time RT-PCR, measured: Fbxo32","mice, LLC tumour-bearing, tibialis anterior",daily or every other day,relative to: tumour-bearing vehicle,mRNA level,decreased
CC1(C)CCC2(CC1)N[C@@H](C(=O)N[C@@H]1CC[C@@H](C(N)=O)OC1)[C@H](c1ccnc(Cl)c1F)[C@]21C(=O)Nc2cc(Cl)ccc21,,,"human, solid tumours","60 mg/day, RECIST",relative to: patients,non-evaluable patients,33.3%
CCc1c(C)nc(-c2ccc(Cl)s2)nc1Nc1ccc(CC(=O)O)cc1,,measured: PDE4A,"C57BL/6J mice, MCD diet, liver","intraperitoneal, 0.3 mg/kg daily, MCD diet 6 weeks, dosed last two",relative to: vehicle,mRNA level,increased
Cc1cnc(N2CC3(CCOCC3)C2)c(C(=O)Nc2ccc(C(=O)N3CCc4cc(C(=O)Nc5c(C)cccc5F)sc4-c4ccccc43)cc2)c1,,measured: CXCL8,"human RSV infection, plasma","dose not given, AUC, ITT-IS population",relative to: placebo,inhibition,53%
O=C(COc1ccc(Cl)cc1)NC12CC(c3nnc([C@H]4C[C@@H](OC(F)(F)F)C4)o3)(C1)C2,,measured: ATF4,"PBMC ex vivo stimulated, human ALS patients","200 mg, D7 predose",relative to: baseline,protein level change,-80.1%
O=C(/C=C/c1ccc(O)c(O)c1/C=C/c1ccc(O)c(O)c1)O[C@H](Cc1ccc(O)c(O)c1)C(=O)O,,,isolated myocardial tissue,1 µM,,LVP,20.2 mmHg
CC[C@@H](C)[C@@H](NC(=O)[C@@H](Cc1ccc(O)cc1)NC(=O)[C@H]1CCCN1C(=O)[C@@H](CCCNC(=N)N)NC(=O)[C@H](N)Cc1c[nH]cn1)C(=O)N[C@H](C)C(=O)N[C@H](Cc1c[nH]cn1)C(=O)N[C@H](CCCNC(=N)N)C(=O)N[C@@H](C(=O)N[C@H](Cc1ccc(O)cc1)C(=O)N[C@H](CO)C(=O)N[C@H](Cc1ccccc1)C(N)=O)C(C)C,,ex vivo flow cytometry,"MC-38 tumour-bearing mice, tumour",dose not given,relative to: CD4+ T cells,IFN-γ+ CD4+ T cells,1.47% and 6.31% and 4.77% and 4.51%
Cc1oncc1C(=O)Nc1ccc(C(F)(F)F)cc1,,measured: dihydroorotate,"female CD-1 mice, pooled urine","oral, 30 mg/kg daily, 0-8 h after dose 1",,DHO concentration,567 ± 35.6 µM
N.N.O=C([O-])C1(C(=O)[O-])CCC1.[Pt+2],,,"human patient, PBMC DNA","dose not given, 24 h, together with: carboplatin",relative to: baseline,platinum-DNA adducts,no effect
COc1cc2cc(-c3ccc(CC(=O)Nc4cc(C(C)(C)C(F)(F)F)no4)cn3)cnc2cc1OC,,,human RET fusion-positive NSCLC,"75 mg, phase I, RECIST 1.1",,disease control rate,74%
O=C1Nc2cc3[nH]nc(-c4ccncc4)c3cc2CN1Cc1ccccc1,,RECIST v1.1,"human, relapsed or refractory advanced solid tumours","intravenous, 7.2 mg/kg",,"progressive disease, best response",67%
CC(C)NCC(O)c1ccc(O)c(O)c1 (stereo not drawn),,,"ventricular cardiomyocytes, C57BL/6 mouse","dose not given, 0.308 s",,sarcomere length,1.72 µm
